{"data": "Results of several laboratories", "CYP3A4": "Cytochrome P450 3A4 (CYP3A4, Homo sapiens, UniProt P08684)", "note": "Each line is one published result; not all experiments were run side by side. ± gives the spread as reported.", "chain of UniProt P08684 (whole entry, unmodified, looked up)": "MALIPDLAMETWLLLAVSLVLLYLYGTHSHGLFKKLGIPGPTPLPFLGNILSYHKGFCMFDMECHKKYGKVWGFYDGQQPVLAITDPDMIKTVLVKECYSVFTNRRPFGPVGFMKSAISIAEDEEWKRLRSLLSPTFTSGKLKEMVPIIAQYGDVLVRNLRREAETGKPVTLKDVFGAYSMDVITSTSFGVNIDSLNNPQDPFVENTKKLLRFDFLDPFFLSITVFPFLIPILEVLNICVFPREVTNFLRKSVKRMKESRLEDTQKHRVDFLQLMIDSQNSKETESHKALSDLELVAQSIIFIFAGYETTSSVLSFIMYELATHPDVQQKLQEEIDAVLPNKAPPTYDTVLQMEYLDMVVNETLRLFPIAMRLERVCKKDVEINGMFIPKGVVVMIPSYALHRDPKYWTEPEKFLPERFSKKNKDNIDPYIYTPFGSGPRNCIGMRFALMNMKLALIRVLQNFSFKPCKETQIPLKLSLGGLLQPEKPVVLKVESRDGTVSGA"}
{"SMILES": "O=C(O)C(F)(OC(F)(F)C(F)(F)C(F)(F)F)C(F)(F)F (stereo not shown)", "target": "CYP3A4", "assay": "enzyme activity, inhibitor", "setting": "Supersomes, added: 7-BFC substrate", "quantity": "IC50", "result": "> 100 µM"}
{"SMILES": "Cc1ncc2n1-c1ccc(Cl)cc1C(c1ccccc1F)=NC2", "target": "CYP3A4", "system": "healthy female humans, plasma", "setting": "oral, dose not given, day 1, probe cocktail alone", "quantity": "half-life", "result": "5.2 ± 1.6 h"}
{"SMILES": "OCc1ncc2n1-c1ccc(Cl)cc1C(c1ccccc1F)=NC2", "target": "CYP3A4", "system": "human", "setting": "75 mg once daily, day 1, added: midazolam 7.5 mg", "scale": "reference: compound over midazolam", "quantity": "AUC ratio", "result": 0.369}
{"SMILES": "CC1=N[C@]2(C(=O)CO)[C@@H](C[C@H]3[C@@H]4C[C@@H](O)C5=CC(=O)C=C[C@]5(C)[C@H]4[C@@H](O)C[C@@]32C)O1", "target": "CYP3A4", "assay": "enzyme activity, inhibitor", "system": "pooled human liver microsomes", "setting": "30 min preincubation with NADPH, added: midazolam substrate", "quantity": "IC50", "result": "> 50 µM"}
{"SMILES": "Cc1ncc2n1-c1ccc(Cl)cc1C(c1ccccc1F)=NC2", "target": "Cytochrome P450 3A4 (CYP3A4, Homo sapiens, UniProt P08684, C239T/C377A/C468S/C58A/C64M/C98A)", "assay": "ligand, stopped flow", "setting": "40 µM, pH 7.4, Cys-less variant", "quantity": "kfast", "result": "0.15 ± 0.02 s⁻¹"}
{"SMILES": "C[C@]12CCC(=O)C=C1CC[C@@H]1[C@@H]2CC[C@@]2(C)[C@H]1CC[C@@]2(O)C/C=C/C[C@]1(O)CC[C@H]2[C@@H]3CCC4=CC(=O)CC[C@]4(C)[C@H]3CC[C@@]21C", "target": "CYP3A4", "assay": "enzyme activity, inhibitor", "quantity": "IC50", "result": "3 µM"}
{"SMILES": "OCCCCc1ccc2ccc3cccc4ccc1c2c34", "target": "Cytochrome P450 3A4 (CYP3A4, Homo sapiens, UniProt P08684, D214E/L211F)", "assay": "FRET titration by dilution", "setting": "pH 7.4, L211F/D214E mutant, excess substrate, enzyme:substrate 1:6, added: HPCD 0.6 mg/mL", "quantity": "Kd", "result": "16.4 ± 16.5 µM"}
{"SMILES": "C=CC[C@]1(O)CC[C@H]2[C@@H]3CC[C@H]4CC(=O)CC[C@]4(C)[C@H]3CC[C@@]21C", "target": "CYP3A4", "assay": "enzyme activity, inhibitor", "quantity": "IC50", "result": "1 µM"}
{"SMILES": "C[C@]12CC[C@H]3[C@@H]([C@H](C/C=C/Cn4cc([C@]5(O)CC[C@H]6[C@@H]7CCc8cc(O)ccc8[C@H]7CC[C@@]65C)nn4)CC4=CC(=O)CC[C@@]43C)[C@@H]1CC[C@@H]2O", "target": "CYP3A4", "assay": "binding, spectral titration", "setting": "pH 7.4, room temperature", "quantity": "Kd", "result": "2 ± 0.1 µM"}
{"SMILES": "COc1cc(/C=C/c2ccc(O)cc2)cc(OC)c1", "target": "CYP3A4", "assay": "enzyme activity, inhibitor", "system": "human, liver microsomes", "setting": "100 µM, 10 min, pH 7.4, midazolam probe", "quantity": "inhibition", "result": "< 50%"}
{"note": "Repeated from above:"}
{"SMILES": "Cc1ncc2n1-c1ccc(Cl)cc1C(c1ccccc1F)=NC2", "target": "CYP3A4", "system": "healthy female humans, plasma", "setting": "oral, dose not given, day 1, probe cocktail alone", "quantity": "half-life", "result": "5.2 ± 1.6 h"}
